Assay results collected from several papers.
Numbered parts are unrelated; each lists some results of a single study. Several values in a cell are separate wells, animals, samples, runs or records.
UniProt Q7KZI7, sequence (whole entry, looked up): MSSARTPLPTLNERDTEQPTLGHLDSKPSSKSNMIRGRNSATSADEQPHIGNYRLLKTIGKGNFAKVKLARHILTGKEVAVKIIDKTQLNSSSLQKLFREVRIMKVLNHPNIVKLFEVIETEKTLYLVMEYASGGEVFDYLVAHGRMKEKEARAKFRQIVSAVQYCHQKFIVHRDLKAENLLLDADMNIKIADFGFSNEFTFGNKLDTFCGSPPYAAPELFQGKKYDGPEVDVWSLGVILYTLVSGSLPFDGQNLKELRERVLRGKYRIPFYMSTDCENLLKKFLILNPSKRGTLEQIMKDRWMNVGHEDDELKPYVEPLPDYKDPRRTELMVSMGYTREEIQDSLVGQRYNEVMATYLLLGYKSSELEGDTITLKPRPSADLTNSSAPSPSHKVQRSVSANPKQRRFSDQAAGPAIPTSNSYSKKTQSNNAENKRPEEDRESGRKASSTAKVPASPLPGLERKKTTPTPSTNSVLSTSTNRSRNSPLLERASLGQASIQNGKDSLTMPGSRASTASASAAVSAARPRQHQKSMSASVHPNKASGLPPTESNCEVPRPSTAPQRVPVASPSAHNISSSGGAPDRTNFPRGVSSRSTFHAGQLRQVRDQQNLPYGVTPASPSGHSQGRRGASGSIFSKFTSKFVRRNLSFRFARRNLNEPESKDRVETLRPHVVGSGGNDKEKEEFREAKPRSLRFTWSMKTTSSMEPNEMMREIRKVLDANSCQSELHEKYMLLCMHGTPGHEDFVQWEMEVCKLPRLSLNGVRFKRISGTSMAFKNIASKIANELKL
UniProt P51617, sequence (whole entry, looked up): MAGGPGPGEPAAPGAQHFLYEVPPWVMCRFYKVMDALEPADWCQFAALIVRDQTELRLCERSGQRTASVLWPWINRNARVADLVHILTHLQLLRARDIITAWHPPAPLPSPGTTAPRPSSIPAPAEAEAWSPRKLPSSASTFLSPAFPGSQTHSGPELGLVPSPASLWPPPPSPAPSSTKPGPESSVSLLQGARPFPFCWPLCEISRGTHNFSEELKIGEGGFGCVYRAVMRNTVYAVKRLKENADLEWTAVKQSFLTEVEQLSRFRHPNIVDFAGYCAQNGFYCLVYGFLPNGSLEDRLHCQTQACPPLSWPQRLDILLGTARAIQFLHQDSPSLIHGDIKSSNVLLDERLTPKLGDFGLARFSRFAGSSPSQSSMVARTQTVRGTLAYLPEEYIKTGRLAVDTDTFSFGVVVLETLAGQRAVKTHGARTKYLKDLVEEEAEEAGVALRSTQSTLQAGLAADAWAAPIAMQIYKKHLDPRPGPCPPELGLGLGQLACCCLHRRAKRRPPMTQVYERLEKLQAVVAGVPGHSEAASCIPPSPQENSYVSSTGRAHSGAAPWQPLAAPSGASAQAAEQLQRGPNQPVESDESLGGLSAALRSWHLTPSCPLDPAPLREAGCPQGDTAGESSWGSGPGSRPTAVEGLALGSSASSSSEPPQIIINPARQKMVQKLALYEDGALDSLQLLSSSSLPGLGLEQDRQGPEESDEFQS
UniProt P23458, sequence (whole entry, looked up): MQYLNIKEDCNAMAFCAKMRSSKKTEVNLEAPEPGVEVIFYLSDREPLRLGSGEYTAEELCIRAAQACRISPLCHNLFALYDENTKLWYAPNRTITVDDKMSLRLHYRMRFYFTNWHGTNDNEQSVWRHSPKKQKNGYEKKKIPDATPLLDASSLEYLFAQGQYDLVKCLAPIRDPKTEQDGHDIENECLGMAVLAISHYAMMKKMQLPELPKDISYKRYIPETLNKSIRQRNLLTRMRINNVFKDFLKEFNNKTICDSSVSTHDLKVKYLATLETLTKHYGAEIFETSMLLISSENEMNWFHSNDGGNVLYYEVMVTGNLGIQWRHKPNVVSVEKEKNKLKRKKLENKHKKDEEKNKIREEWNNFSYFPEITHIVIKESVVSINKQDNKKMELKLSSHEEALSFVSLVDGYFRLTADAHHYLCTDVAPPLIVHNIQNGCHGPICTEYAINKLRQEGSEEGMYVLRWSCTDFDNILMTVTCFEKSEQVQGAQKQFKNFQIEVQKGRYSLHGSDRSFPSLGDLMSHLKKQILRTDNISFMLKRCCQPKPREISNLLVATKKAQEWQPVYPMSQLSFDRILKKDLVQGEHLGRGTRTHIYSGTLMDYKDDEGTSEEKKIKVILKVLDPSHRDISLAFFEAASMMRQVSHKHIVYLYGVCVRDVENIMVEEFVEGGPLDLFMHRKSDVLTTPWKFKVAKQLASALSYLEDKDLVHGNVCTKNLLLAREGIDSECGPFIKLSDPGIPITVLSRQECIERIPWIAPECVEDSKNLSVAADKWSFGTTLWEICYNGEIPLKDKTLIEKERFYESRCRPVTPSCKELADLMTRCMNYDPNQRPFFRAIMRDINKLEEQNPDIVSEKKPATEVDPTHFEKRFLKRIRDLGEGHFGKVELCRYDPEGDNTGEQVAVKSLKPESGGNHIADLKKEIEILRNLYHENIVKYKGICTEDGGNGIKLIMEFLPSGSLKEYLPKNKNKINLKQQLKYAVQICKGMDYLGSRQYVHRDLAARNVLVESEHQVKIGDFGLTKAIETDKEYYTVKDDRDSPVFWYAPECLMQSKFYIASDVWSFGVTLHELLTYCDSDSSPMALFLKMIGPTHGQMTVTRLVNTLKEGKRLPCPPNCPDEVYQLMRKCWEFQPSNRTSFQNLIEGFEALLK
UniProt O00506, sequence (whole entry, looked up): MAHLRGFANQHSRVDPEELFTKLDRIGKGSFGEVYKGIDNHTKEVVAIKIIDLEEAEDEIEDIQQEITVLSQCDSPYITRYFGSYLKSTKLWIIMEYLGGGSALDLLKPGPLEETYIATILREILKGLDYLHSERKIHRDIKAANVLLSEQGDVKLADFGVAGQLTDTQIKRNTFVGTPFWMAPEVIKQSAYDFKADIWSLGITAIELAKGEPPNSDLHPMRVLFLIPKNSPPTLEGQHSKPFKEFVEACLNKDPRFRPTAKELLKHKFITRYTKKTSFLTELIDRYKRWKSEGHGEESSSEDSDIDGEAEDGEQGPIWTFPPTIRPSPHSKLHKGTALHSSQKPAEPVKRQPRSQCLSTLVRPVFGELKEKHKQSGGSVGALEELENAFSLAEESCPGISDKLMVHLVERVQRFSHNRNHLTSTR
UniProt Q8WTQ7, sequence (whole entry, looked up): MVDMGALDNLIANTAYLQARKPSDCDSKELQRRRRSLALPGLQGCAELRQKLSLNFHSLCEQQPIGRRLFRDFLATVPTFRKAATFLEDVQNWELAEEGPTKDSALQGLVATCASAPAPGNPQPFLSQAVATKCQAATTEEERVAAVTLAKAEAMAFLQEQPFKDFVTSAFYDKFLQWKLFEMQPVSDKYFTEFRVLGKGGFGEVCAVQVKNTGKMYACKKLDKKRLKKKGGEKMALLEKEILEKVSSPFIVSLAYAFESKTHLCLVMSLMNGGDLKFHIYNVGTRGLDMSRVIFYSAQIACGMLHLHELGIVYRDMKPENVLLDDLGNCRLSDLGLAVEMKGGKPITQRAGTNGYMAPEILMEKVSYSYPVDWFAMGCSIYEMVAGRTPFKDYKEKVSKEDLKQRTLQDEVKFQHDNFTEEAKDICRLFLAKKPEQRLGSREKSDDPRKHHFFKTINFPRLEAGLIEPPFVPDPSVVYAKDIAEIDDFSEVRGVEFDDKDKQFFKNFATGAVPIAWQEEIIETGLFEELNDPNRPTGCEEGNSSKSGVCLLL
UniProt Q08881, sequence (whole entry, looked up): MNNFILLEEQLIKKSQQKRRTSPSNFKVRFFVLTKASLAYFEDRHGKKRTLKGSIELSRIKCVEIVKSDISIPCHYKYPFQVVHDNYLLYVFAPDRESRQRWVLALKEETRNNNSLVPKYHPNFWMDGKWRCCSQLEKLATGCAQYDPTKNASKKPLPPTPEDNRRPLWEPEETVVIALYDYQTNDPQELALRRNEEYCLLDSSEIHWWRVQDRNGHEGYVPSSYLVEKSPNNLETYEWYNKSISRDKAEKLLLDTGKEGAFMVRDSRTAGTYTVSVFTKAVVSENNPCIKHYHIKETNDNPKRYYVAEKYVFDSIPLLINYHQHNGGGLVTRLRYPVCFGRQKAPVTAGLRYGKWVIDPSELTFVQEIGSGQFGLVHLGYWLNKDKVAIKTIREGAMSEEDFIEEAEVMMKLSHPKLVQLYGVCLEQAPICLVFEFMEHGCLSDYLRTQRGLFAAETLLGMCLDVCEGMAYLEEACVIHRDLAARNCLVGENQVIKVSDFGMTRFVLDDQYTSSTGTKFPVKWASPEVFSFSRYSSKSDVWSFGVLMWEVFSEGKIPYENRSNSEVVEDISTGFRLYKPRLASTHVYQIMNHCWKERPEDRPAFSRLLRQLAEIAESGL

Sample 1 — cell line: A-375; concentration: 100 µM; time: 36 h
SMILES	viability [%]
Nc1c(CC(=O)O)cccc1C(=O)c1ccccc1	103
CC1CCC(C(C)C)C(O)C1 (racemic)	101
CCC(=O)c1c(O)cc(O)cc1O	107
C[C@H]1[C@H](NC(=O)/C(=N\OC(C)(C)C(=O)O)c2csc(N)n2)C(=O)N1S(=O)(=O)O	100
Cc1onc(-c2ccccc2)c1-c1ccc(S(N)(=O)=O)cc1	75.3
c1cc(CN2CCCNCCNCCCNCC2)ccc1CN1CCCNCCNCCCNCC1	101
c1ccc([C@H]2CN3CCSC3=N2)cc1	104
CN1CCN(c2c(F)cc3c(=O)c(C(=O)O)cn(CCF)c3c2F)CC1	30.2

Sample 2 — read-out: enzyme activity; mode: inhibitor; concentration: 0.5 µM; reference: control
Target: Fibroblast growth factor receptor 4 (FGFR4, Homo sapiens, UniProt P22455)
UniProt P22455, sequence (whole entry, looked up): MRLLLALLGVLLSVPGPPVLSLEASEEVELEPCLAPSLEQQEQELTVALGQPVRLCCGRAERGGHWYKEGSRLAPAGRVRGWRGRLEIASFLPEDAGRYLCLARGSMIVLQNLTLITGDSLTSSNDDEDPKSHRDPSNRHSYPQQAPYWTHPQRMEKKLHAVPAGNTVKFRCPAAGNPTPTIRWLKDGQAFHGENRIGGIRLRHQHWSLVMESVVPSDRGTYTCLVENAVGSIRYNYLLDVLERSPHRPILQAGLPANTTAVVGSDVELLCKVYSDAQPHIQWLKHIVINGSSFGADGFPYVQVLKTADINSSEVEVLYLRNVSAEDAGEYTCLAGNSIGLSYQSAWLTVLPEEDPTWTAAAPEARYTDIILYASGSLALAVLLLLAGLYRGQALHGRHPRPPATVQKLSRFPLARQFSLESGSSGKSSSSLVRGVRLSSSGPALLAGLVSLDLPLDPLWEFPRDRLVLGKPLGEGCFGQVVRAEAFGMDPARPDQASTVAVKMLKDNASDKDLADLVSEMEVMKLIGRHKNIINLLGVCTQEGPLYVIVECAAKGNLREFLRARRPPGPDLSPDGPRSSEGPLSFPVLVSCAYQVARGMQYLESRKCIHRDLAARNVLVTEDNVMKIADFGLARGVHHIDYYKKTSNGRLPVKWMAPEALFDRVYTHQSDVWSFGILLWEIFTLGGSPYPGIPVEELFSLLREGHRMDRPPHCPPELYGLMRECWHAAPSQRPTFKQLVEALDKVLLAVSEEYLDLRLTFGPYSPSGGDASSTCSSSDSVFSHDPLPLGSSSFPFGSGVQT
Compound	remaining activity [%]
CCOC(=O)c1c(C)[nH]c(/C=C2\C(=O)Nc3ccccc32)c1C	82.4
CC(C)[C@H](CO)Nc1nc(Nc2cc(N)cc(Cl)c2)c2ncn(C(C)C)c2n1	93.4
COc1cc2ncnc(Nc3ccc(Oc4ccccc4)cc3)c2cc1OC	77.8
CN(C)c1ccc(C=C2C(=O)Nc3ccccc32)cc1	97.4
CNC(=O)c1cc(Oc2ccc(NC(=O)Nc3ccc(Cl)c(C(F)(F)F)c3)cc2)ccn1	104
C#Cc1cccc(Nc2ncnc3cc(OCCOC)c(OCCOC)cc23)c1	93.3
COc1cc2nccc(Oc3ccc(NC(=S)NC(=O)c4ccccc4C)cc3)c2cc1OC	92.9
N#CC(C#N)=C(N)/C(C#N)=C/c1ccc(O)cc1	91.1
OCC(O)CCON=C1C(c2c(O)[nH]c3ccccc23)=Nc2ccccc21 (centres unmarked)	65.7
COc1cc2ncnc(Nc3ccc(F)c(Cl)c3)c2cc1OCCCN1CCOCC1	92.4
O=c1c2ccccc2[nH]c(=S)n1CCN1CCC(=C(c2ccc(F)cc2)c2ccc(F)cc2)CC1	105
Nc1ncnc2n[nH]c(Nc3ccc(F)cc3)c12	107
COc1ccc(C(=O)Nc2sc3c(c2C(N)=O)CCCC3)cc1OC	105
Nc1ccc2ncnc(NCCc3ccc(Oc4ccccc4)cc3)c2c1	104
Cn1c2ccccc2c2c3c(c4c5ccccc5n(CCC#N)c4c21)CNC3=O	86.5
NCCNc1ncc(C(N)=O)c(Nc2cccc(C(F)(F)F)c2)n1	76.2

Sample 3 — method: competition with immobilised ligand; concentration: 1 µM
Structure (SMILES): CN([C@@H]1CCc2c(CC(=O)O)c3ccccc3n2C1)S(=O)(=O)c1ccc(F)cc1
target	test	remaining binding
RET (Homo sapiens, UniProt P07949)	cell-free assay	100%
Tyrosine-protein kinase JAK1, JH1 (JAK1, Homo sapiens, UniProt P23458)	cell-free assay	100%
MAP4K4 (Homo sapiens, UniProt O95819)	cell-free assay	100%
MAP3K13 (Homo sapiens, UniProt O43283)	cell-free assay	100%
CDK16 (Homo sapiens, UniProt Q00536)	cell-free assay	98%
CDK3 (Homo sapiens, UniProt Q00526)	cell-free assay	100%
MAP2K5 (Homo sapiens, UniProt Q13163)	cell-free assay	100%
NIM1K (Homo sapiens, UniProt Q8IY84)	cell-free assay	100%
MAPK9 (Homo sapiens, UniProt P45984)	cell-free assay	98%
PIM3 (Homo sapiens, UniProt Q86V86)	cell-free assay	100%
ITK (Homo sapiens, UniProt Q08881)	cell-free assay	96%
CDK8 (Homo sapiens, UniProt P49336)	cell-free assay	100%
GRK7 (Homo sapiens, UniProt Q8WTQ7)	cell-free assay	93%
ERBB2 (Homo sapiens, UniProt P04626)	cell-free assay	100%
CAMKK1 (Homo sapiens, UniProt Q8N5S9)	cell-free assay	91%
BTK (Homo sapiens, UniProt Q06187)	cell-free assay	86%
IRAK1 (Homo sapiens, UniProt P51617)	cell-free assay	78%
PAK6 (Homo sapiens, UniProt Q9NQU5)	cell-free assay	100%
MARK2 (Homo sapiens, UniProt Q7KZI7)	cell-free assay	100%
Tyrosine-protein kinase ABL1, phosphorylated (ABL1, Homo sapiens, UniProt P00519, E255K)	binding	90%
STK25 (Homo sapiens, UniProt O00506)	cell-free assay	99%
TAOK2 (Homo sapiens, UniProt Q9UL54)	cell-free assay	82%
PRKAA2 (Homo sapiens, UniProt P54646)	cell-free assay	100%
Tyrosine-protein kinase ABL1, phosphorylated (ABL1, Homo sapiens, UniProt P00519, T315I)	cell-free assay	98%
EGFR (Homo sapiens, UniProt P00533)	cell-free assay	95%

Other studies, line by line
Compound	system	setting	endpoint	result
COc1ccc(-c2c(Nc3ccccn3)[nH]c3c(C4=CCCCC4)c(-c4ccccc4)nn3c2=O)cc1	human, plasma	oral, 200 mg twice daily	AUMC(0-tau)	699000 h²·ng/mL and 751000 h²·ng/mL and 710000 h²·ng/mL

Excerpt of the above (sample 3):
target	test	remaining binding
RET (Homo sapiens, UniProt P07949)	cell-free assay	100%
EGFR (Homo sapiens, UniProt P00533)	cell-free assay	95%
MARK2 (Homo sapiens, UniProt Q7KZI7)	cell-free assay	100%
